Results from different studies.
“And” joins repeats or separate records; there may be more than shown. ± marks the error that the study gave.
UCHL1: Ubiquitin carboxyl-terminal hydrolase isozyme L1 (UCHL1, Homo sapiens, UniProt P09936)
Chain of UniProt P09936 (whole entry, looked up): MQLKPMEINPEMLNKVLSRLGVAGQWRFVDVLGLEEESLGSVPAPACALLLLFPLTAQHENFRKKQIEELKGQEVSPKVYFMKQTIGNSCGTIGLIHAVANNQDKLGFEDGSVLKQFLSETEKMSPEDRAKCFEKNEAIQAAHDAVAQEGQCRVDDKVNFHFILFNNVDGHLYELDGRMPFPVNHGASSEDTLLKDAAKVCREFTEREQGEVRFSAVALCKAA
Chain of UniProt Q07794 (whole entry, looked up): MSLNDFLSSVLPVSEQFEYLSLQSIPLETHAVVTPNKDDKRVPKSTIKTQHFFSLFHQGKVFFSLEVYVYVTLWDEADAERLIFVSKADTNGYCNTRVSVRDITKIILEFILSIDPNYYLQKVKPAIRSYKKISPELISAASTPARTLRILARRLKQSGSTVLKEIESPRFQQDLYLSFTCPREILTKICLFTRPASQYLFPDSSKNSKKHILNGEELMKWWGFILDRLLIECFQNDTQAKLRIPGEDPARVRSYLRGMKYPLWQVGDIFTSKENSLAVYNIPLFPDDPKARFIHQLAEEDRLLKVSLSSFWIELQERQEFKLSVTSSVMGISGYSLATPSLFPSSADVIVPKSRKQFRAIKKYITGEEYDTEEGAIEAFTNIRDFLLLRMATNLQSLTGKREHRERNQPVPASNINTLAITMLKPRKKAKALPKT

Compound	tested on	assay	setting	scale	quantity	value
CC(C)(C)c1cc(C(C)(C)C)c(NC(=O)c2c[nH]c3ccccc3c2=O)cc1O	Caco-2 CFTR knockout	ELISA	concentration not given	–	IL-15 level	4.56e+06 pg/mL
CCCCc1oc2ccccc2c1C(=O)c1cc(I)c(OCCN(CC)CC)c(I)c1	human embryonic stem cell aggregates	microarray	4 µM, 120 h, fold change above 1.5	–	down-regulated genes number	323
CCn1cc(-c2cc(Cn3ccnc3)cc3c2CCN([C@H](c2cc(OC)ccn2)C2CC2)C3=O)c(C(F)(F)F)n1	KP2	cell growth	120 h	–	EC50	> 30000 nM
Nc1cccc2c1C(=O)N(C1CCC(=O)NC1=O)C2=O (centres unmarked)	RPMI-8226	flow cytometry, item: CD32	concentration not given	baseline: comparator compound alone	surface marker level	262%
COc1ccc(NC(=O)c2c(Nc3ccccc3)sc(C(=O)NN=Cc3ccc(OC)c(O)c3)c2NC(C)=O)cc1	HepG2	annexin V-FITC/PI	concentration not given	–	early apoptotic cells	4.19 ± 0.21%
Clc1cccc(Nc2nc(-c3ccncc3)no2)c1	Histone acetyltransferase RTT109, with Vps75 (Saccharomyces cerevisiae, UniProt Q07794)	enzyme activity, inhibitor, HTS, CPM-based, dose response	–	–	IC50	> 125 µM
C/C=C/C/C=C/CCC(=O)[C@H]1O[C@H]1C(N)=O	MCF-10A	CellTiter-Glo	concentration not given, replicate D	baseline: normalised luminescence	viability	73.2%
CCCCCC(=O)Oc1c(C)c(O)c(C(=O)/C=C/c2ccccc2)c(OC)c1C	FaDu	SRB	–	baseline: normal over FaDu IC50	selectivity index	1.24
CCn1cc(-c2cc(Cn3ccoc3=N)cc3c2CCN([C@@H](C)c2cc(OC)ccn2)C3=O)c(C(F)(F)F)n1	COV362	cell growth, inhibitor	120 h	–	EC50	866 nM
Cn1cc(-n2cnc3c(NCc4nc5cc(Cl)c(Cl)cc5[nH]4)nc(N4CCOCC4)nc32)cn1	MDA-MB-468	cell viability, CellCounting-Lite	0.3048 nM, 37 °C	higher = more viable cells	luminescence signal	429000 a.u. and 516000 a.u. and 513000 a.u.
Cn1cc(Nc2nccc(-c3ccc4c(c3)CN(C3COC3)CC[C@H]4NC(=O)c3cn(C(C)(C)C)nn3)n2)cn1	human B cells	–	100 nM, 64 h, stimulation-upregulated genes, added: CD40L, anti-IgM, IL-21	–	number of unchanged genes	1580
COc1cc(C=C(C#N)C(=O)Nc2ccc(C)cc2)cc(Cl)c1O	UCHL1	covalent, intact protein LC-MS	12.5 µM	–	labelling	25.2%
COc1cnc2cccc(N3CCc4c(cc(Cn5ccnc5C)cc4-c4cn(C)nc4C(F)(F)F)C3=O)c2c1	SNU1066	cell growth	120 h	–	EC50	> 30000 nM
Cc1cc(-c2ccccc2)n(-c2nc(-c3ccc(Cl)cc3)c3c(NC(=O)c4ccccc4)nnc-3[nH]2)n1	MDA-MB-231/ATCC	NCI60 SRB	10 µM	–	growth percent	94.2%
N#Cc1ccc(C[C@H](NC(=O)c2cc3cc(F)ccc3[nH]2)C(=O)N2CCc3ccccc32)cc1	human neutrophils	calcium mobilization, agonist	–	–	EC50	300 ± 200 nM
CC1(C)CC2C1CC[C@]1(C)CCC3C(C(=O)O)CC(=O)O[C@@]32C1 (some centres unmarked)	MYBPC3 mutant iPSC-derived cardiomyocytes	–	20 µM, 24 h, primary screen	baseline: plate controls	MyBP-C/MYH ratio	140%
CCCCCCCCCCCCCC[N+](C)(C)C	GH3	Na+ channel	external application, repetitive pulses	–	Kd	2000 nM
Cn1cc(-c2ccc(-c3cncc(Cl)c3N3CCC4(CCNC4=O)CC3)cc2)cn1	COLO 205	microarray, item: CDKN2C	concentration not given, 6 h, gene set p18	baseline: untreated cells	fold change in expression	-1.64
Cc1cc(C)c(C=C(C#N)C(=O)Nc2nccs2)cc1C	UCHL1	covalent, intact protein LC-MS	12.5 µM	–	labelling	16.2%
O=C(/C=C/C=C/C=C/C1CCCCC1)NC1=C[C@@](O)(/C=C/C=C/C=C/C(=O)NC2=C(O)CCC2=O)[C@@H]2O[C@@H]2C1=O	SW1573	cell growth, CellTiter-Glo	78 h	–	GI50	10 µM

Excerpt of the above:
Compound	tested on	assay	setting	scale	quantity	value
Cn1cc(Nc2nccc(-c3ccc4c(c3)CN(C3COC3)CC[C@H]4NC(=O)c3cn(C(C)(C)C)nn3)n2)cn1	human B cells	–	100 nM, 64 h, stimulation-upregulated genes, added: CD40L, anti-IgM, IL-21	–	number of unchanged genes	1580
